Results gathered from unrelated publications.
Protocols differ between the studies behind these lines.
Medium: plasma

Structure (SMILES) = CSCOC1C(=O)C2(C)C(OCSC)CC3OCC3(OC(C)=O)C2C(OC(=O)c2ccccc2)C2(O)CC(OC(=O)C(O)C(C=C(C)C)NC(=O)OC(C)(C)C)C(C)=C1C2(C)C (stereo not shown); test system = male Sprague-Dawley rat; setting = intravenous, 1 mg/kg; quantity = AUC(0-inf); result = 261 ng·h/mL
Structure (SMILES) = C#Cc1cccc(Nc2ncnc3cc(OC)c(OCCCN4CCOCC4)cc23)c1; test system = Sprague-Dawley rat; setting = oral, 40 mg/kg; quantity = AUC; result = 20900 ng·h/mL
Structure (SMILES) = Cc1ccc(OCC(=O)N(Cc2cccs2)c2ccn[nH]2)cc1; test system = female Sprague-Dawley rat; setting = oral, 30 mg/kg, single dose; quantity = AUC(0-t); result = 29.1 ng·h/mL
Structure (SMILES) = CC(C)(C)C(=O)Nc1ccc2[nH]c(CN3CCC(N(CCCN4CCOCC4)CC4OC(n5cnc6c(N)ncnc65)C(O)C4O)CC3)nc2c1 (stereo not shown); test system = male Sprague-Dawley rat; setting = intraperitoneal, 20 mg/kg; quantity = AUC; result = 2650 ng·h/mL
Structure (SMILES) = CN1Cc2c(Cl)cc(Cl)cc2C(c2ccc(S(=O)(=O)NCCOCCOCCOCCNC(=O)C(O)C(O)C(=O)NCCOCCOCCOCCNS(=O)(=O)c3ccc(C4CN(C)Cc5c(Cl)cc(Cl)cc54)cc3)cc2)C1 (stereo not shown); test system = male Sprague-Dawley rat; setting = oral, 10 mg/kg; quantity = AUC; result = < 19 ng·h/mL
Structure (SMILES) = CC1(C)CNC(=O)c2ccccc21; test system = rat; setting = oral, 5 mg/kg, single dose; quantity = AUC(0-inf); result = 2940 ng·h/mL
Structure (SMILES) = CN1Cc2c(Cl)cc(Cl)cc2C(c2cccc(S(=O)(=O)NCCOCCOCCNC(=O)C(O)C(O)C(=O)NCCOCCOCCNS(=O)(=O)c3cccc(C4CN(C)Cc5c(Cl)cc(Cl)cc54)c3)c2)C1 (stereo not shown); test system = male Sprague-Dawley rat; setting = oral, 9 mg/kg; quantity = AUC; result = < 4 ng·h/mL
Structure (SMILES) = N[C@H](COc1ccccc1C(F)(F)F)c1ccccc1; test system = rat; setting = intravenous, 5 mg/kg; quantity = AUC; result = 407 ng·h/mL
Structure (SMILES) = CCCCC1NC(=O)c2ccccc21 (racemic); test system = Wistar rat; setting = intravenous, 10 mg/kg; quantity = AUC; result = 13700 ng·h/mL
Structure (SMILES) = Cc1cc(/C=C/C#N)cc(C)c1Oc1nc(NC2CCN(Cc3ccc(P(C)(C)=O)cc3)CC2)nc2ccsc12; test system = male Sprague-Dawley rat; setting = intravenous, 2 mg/kg; quantity = AUC; result = 635 ng·h/mL

Repeated from above:
Structure (SMILES) = CN1Cc2c(Cl)cc(Cl)cc2C(c2ccc(S(=O)(=O)NCCOCCOCCOCCNC(=O)C(O)C(O)C(=O)NCCOCCOCCOCCNS(=O)(=O)c3ccc(C4CN(C)Cc5c(Cl)cc(Cl)cc54)cc3)cc2)C1 (stereo not shown); test system = male Sprague-Dawley rat; setting = oral, 10 mg/kg; quantity = AUC; result = < 19 ng·h/mL
